Measurements of several laboratories.
Lines come from different studies, so protocols differ. ± marks the error that the study gave.
Sequence of UniProt A0A109QYD3 (whole entry, looked up): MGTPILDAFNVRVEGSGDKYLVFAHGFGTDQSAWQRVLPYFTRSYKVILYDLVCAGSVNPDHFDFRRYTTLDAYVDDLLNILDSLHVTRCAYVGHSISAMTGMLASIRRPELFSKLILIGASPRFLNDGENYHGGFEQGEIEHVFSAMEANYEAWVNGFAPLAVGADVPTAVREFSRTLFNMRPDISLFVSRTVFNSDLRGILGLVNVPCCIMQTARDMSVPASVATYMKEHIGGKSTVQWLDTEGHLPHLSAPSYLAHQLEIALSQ
Sequence of UniProt P22607 (whole entry, looked up): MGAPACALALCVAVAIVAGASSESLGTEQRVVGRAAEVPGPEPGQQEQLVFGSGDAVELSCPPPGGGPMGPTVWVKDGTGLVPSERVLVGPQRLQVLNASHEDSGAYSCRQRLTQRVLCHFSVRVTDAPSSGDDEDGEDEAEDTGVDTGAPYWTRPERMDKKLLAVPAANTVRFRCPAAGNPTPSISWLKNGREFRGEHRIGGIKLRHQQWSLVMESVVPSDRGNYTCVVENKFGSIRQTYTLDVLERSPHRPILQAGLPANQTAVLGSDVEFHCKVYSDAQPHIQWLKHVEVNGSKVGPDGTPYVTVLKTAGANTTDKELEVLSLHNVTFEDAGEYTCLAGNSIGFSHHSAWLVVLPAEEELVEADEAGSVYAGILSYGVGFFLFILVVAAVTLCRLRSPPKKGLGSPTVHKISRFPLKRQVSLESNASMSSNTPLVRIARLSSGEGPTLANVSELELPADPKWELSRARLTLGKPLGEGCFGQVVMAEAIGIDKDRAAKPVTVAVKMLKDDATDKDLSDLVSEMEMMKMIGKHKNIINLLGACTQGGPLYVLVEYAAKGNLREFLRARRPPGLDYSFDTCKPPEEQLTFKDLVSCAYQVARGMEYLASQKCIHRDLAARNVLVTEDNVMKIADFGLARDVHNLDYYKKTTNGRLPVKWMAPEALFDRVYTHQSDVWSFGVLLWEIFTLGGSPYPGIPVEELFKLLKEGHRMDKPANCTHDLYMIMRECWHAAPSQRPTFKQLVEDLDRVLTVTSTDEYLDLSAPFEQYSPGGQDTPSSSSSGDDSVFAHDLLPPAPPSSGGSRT
Sequence of UniProt Q04609 (whole entry, looked up): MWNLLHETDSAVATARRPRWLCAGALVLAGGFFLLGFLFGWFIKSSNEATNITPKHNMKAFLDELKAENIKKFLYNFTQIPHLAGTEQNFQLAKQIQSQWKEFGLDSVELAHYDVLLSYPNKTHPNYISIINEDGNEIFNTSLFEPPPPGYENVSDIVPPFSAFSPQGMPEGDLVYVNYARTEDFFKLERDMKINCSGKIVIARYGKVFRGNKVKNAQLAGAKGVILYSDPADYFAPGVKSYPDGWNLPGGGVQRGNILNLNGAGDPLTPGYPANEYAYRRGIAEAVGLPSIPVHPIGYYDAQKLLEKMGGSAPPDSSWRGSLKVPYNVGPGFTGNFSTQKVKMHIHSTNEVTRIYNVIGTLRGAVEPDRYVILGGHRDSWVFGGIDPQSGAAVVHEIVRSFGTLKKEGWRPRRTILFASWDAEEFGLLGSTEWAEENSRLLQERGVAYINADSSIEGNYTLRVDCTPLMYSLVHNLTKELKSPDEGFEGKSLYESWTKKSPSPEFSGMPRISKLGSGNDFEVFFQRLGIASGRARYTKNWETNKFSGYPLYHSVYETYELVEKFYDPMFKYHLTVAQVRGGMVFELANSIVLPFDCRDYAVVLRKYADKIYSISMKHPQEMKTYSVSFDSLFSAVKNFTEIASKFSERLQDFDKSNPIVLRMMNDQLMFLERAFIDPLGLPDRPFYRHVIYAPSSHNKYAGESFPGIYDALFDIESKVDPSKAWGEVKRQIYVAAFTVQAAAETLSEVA
Sequence of UniProt P15328 (whole entry, looked up): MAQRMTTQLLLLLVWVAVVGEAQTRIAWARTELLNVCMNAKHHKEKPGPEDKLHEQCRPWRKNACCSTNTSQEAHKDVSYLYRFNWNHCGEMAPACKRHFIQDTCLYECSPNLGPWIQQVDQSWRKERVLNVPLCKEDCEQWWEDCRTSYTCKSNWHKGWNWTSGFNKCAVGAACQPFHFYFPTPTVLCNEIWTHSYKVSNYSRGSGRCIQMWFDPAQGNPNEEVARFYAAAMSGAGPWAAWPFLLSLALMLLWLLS

CC[C@H](C)[C@H](NC(=O)[C@H](CO)NC(=O)[C@H](CO)NC(=O)[C@H](CCC(=O)O)NC(=O)[C@H](CCC(=O)O)NC(=O)[C@H](CCCCN)NC(=O)[C@H](CO)NC(=O)[C@@H](NC(=O)[C@H](CO)NC(=O)[C@H](CC(C)C)NC(=O)[C@H](Cc1ccccc1)NC(=O)[C@H](CCCNC(=N)N)NC(=O)[C@H](C)NC(=O)[C@H](Cc1ccccc1)NC(=O)[C@H](Cc1ccccc1)NC(=O)[C@@H]1CCCN1C(=O)[C@H](CC(C)C)NC(=O)[C@H](C)NC(=O)[C@H](CCCCN)NC(=O)CNC(=O)[C@H](CCC(N)=O)NC(=O)[C@H](CCC(N)=O)NC(=O)[C@H](CC(=O)O)NC(=O)[C@H](CC(N)=O)NC(=O)[C@@H]1CCCN1C(=O)[C@H](Cc1ccc(O)cc1)NC(=O)[C@H](C)NC(=O)[C@@H](N)CCSC)C(C)C)C(=O)N[C@@H](CCCCN)C(=O)N[C@@H](CO)C(=O)N1CCC[C@H]1C(=O)N[C@@H](CO)C(=O)N1CCC[C@H]1C(=O)N[C@@H](CC(=O)O)C(=O)N[C@@H](Cc1c[nH]cn1)C(=O)N[C@@H](CCC(=O)O)C(=O)N[C@H](C(=O)N[C@@H](CO)C(=O)N[C@H](C(=O)N[C@@H](CCCNC(=N)N)C(=O)N[C@@H](CCCCN)C(=O)N[C@@H](Cc1ccc(O)cc1)C(=O)N1CCC[C@H]1C(=O)N[C@@H](CO)C(=O)N[C@@H](CC(=O)O)C(=O)N[C@@H](Cc1c[nH]c2ccccc12)C(=O)N[C@@H](CCC(=O)O)C(=O)N[C@@H](CCC(=O)O)C(=O)N[C@@H](Cc1c[nH]c2ccccc12)C(=O)O)[C@@H](C)O)[C@@H](C)CC — Kd (uncharacterized protein (Microcystis aeruginosa MRC, UniProt B2G3D0); isothermal titration calorimetry; pH 8.0, 25 °C): 112 ± 52 nM
C[C@H](NC(=O)[C@H](Cc1c[nH]cn1)NC(=O)[C@H](CO)NC(=O)[C@H](CC(=O)O)NC(=O)CCCC[C@@H]1SC[C@@H]2NC(=O)N[C@@H]21)C(=O)N[C@@H](CCCCN)C(=O)N[C@@H](CCCNC(=N)N)C(=O)N[C@@H](Cc1c[nH]cn1)C(=O)N[C@@H](Cc1c[nH]cn1)C(=O)NCC(=O)N[C@@H](Cc1ccc(O)cc1)C(=O)N[C@@H](CCCCN)C(=O)N[C@@H](CCCNC(=N)N)C(=O)N[C@@H](CCCCN)C(=O)N[C@@H](Cc1ccccc1)C(=O)N[C@@H](Cc1c[nH]cn1)C(=O)N[C@@H](CCC(=O)O)C(=O)N[C@@H](CCCCN)C(=O)N[C@@H](Cc1c[nH]cn1)C(=O)N[C@@H](Cc1c[nH]cn1)C(=O)N[C@@H](CO)C(=O)N[C@@H](Cc1c[nH]cn1)C(=O)N[C@@H](CCCNC(=N)N)C(=O)NCC(=O)N[C@@H](Cc1ccc(O)cc1)C(=O)O — Kd (Heat shock protein SSA2 (SSA2, Candida albicans, UniProt P46587); FPLC gel filtration; pH 7.4, with: no nucleotide): 5400 ± 300 nM
CC[C@H](C)[C@H](NC(=O)[C@H](CCCCN)NC(=O)[C@H](CC(C)C)NC(=O)[C@H](Cc1ccccc1)NC(=O)[C@@H](NC(=O)[C@@H](N)CCCCN)[C@@H](C)O)C(=O)N[C@@H](CS)C(=O)N[C@@H](CCCCN)C(=O)N[C@@H](CCCNC(=N)N)C(=O)N1CCC[C@H]1C(=O)N[C@@H](Cc1ccc(O)cc1)C(=O)N[C@H](C(=O)N1CCC[C@H]1C(=O)N[C@@H](CO)C(=O)N[C@@H](CCC(=O)O)C(=O)N1CCC[C@H]1C(N)=O)C(C)C — Kd (Leishmania secreted acid phosphatase; surface plasmon resonance; pH 6.5, 25 °C): 4.42 ± 0.09 nM
CC[C@H](C)[C@H](NC(=O)[C@H](Cc1ccc(O)cc1)NC(=O)[C@@H]1CCCN1C(=O)[C@H](CCCCN)NC(=O)[C@H](CCCCN)NC(=O)CCNC(=O)CCNC(=O)[C@H](CCC(=O)NCCC(=O)NCCC(=O)N[C@@H](Cc1ccc(OCC(=O)N[C@@H](Cc2ccccc2)C(=O)NCCCC[C@H](NC(=O)N[C@@H](CCC(=O)O)C(=O)O)C(=O)O)cc1)C(=O)O)NC(=O)CCNC(=O)CCNC(=O)CN1CCN(CC(=O)O)CCN(CC(=O)O)CCN(CC(=O)O)CC1)C(=O)N[C@@H](CC(C)C)C(=O)O [gallium-68 labelled] — Kd (FOLH1 (Homo sapiens, UniProt Q04609); saturation binding; PC3-PIP cells (NTS1+ and PSMA+); 2 h, 4 °C): 53 nM
N=C(N)NCCC[C@H](NC(=O)[C@H](CS)NC(=O)[C@H](Cc1ccc(O)cc1)NC(=O)[C@H](Cc1c[nH]c2ccccc12)NC(=O)[C@H](CCCNC(=N)N)NC(=O)[C@H](Cc1c[nH]c2ccccc12)NC(=O)CNC(=O)[C@H](Cc1c[nH]cn1)NC(=O)CNC(=O)CN)C(N)=O — Kd (HCV IV RNA; fluorescein-labelled RNA titration; 1 mM TCEP): 10000 ± 2000 nM
C#CC[C@H](NC(=O)CNC(=O)[C@H](CO)NC(=O)[C@@H]1CCCCNC(=O)CCCC(=O)N[C@@H](CCSC)C(=O)N[C@@H](Cc2c[nH]c3ccccc23)C(=O)N2CCC[C@H]2C(=O)N[C@@H](Cc2c[nH]cn2)C(=O)N[C@@H](CCCNC(=N)N)C(=O)N[C@@H](C(C)C)C(=O)N[C@@H]([C@@H](C)O)C(=O)N[C@@H](C)C(=O)N(C)[C@@H](C)C(=O)N1)C(=O)O — Kd (Microtubule-associated protein 1 light chain 3 alpha (Homo sapiens, UniProt Q9H492); fluorescence polarization): 121 ± 19 nM
Nc1nc2ncc(CNc3ccc(C(=O)N[C@@H](CCC(=O)NCCOCCOCCNC(=O)CN4CCN5CCN(CC4)CC(=O)[O][Al]([F])[O]C(=O)C5)C(=O)O)cc3)nc2c(=O)[nH]1 [fluorine-18 labelled] — Kd (FOLR1 (Homo sapiens, UniProt P15328); radioligand saturation binding; CAL-51 xenograft homogenate): 1.1 nM
CSCC[C@H](NC(C)=O)C(=O)N[C@@H](CO)C(=O)N[C@@H](CO)C(=O)N1CCC[C@H]1C(=O)N1CCC[C@H]1C(=O)N[C@H]1CSCc2cc3cc(c2)CSC[C@@H](C(=O)N[C@@H](CC(C)C)C(=O)N[C@@H](CCCNC(=N)N)C(=O)N[C@@H](CCCNC(=N)N)C(=O)N[C@@H](Cc2ccc(O)cc2)C(=O)NCC(=O)N[C@@H](CO)C(=O)NCC(=O)N[C@@H](CO)C(=O)NCC(=O)N[C@@H](CO)C(=O)N[C@@H](CC(=O)O)C(=O)N[C@@H](Cc2ccc(O)cc2)C(=O)N[C@@H](CCCCN)C(=O)N[C@@H](CC(=O)O)C(=O)N[C@@H](CC(=O)O)C(=O)N[C@@H](CC(=O)O)C(=O)N[C@@H](CC(=O)O)C(=O)N[C@@H](CCCCN)C(N)=O)NC(=O)[C@H](CSC3)NC(=O)CNC(=O)[C@H](CC(C)C)NC(=O)[C@H]([C@@H](C)O)NC1=O — Kd (FGFR3 (Homo sapiens, UniProt P22607); binding, BLI): 13.3 nM
Cc1cc(=O)oc2c(F)c(OC3C=CC(=O)O3)c(F)cc12 (racemic) — Kd (RMS3 (Lathyrus oleraceus, UniProt A0A109QYD3); binding, fluorescence): 21000 nM
C=Cc1cc(OC)c2c(c1)c(=O)oc1c2cc(OC)c2c(O)ccc([C@@H]3O[C@H](C)[C@H](O)[C@@](C)(O)[C@H]3O)c21 — Kd (Bifunctional protein GlmU (Staphylococcus aureus, UniProt Q5HIH6, G277S); binding, MST): 48.1 nM
CC[C@H](C)[C@@H]1NC(=O)[C@H](CC(C)C)NC(=O)[C@H](CCC(=O)O)NC(=O)CNC(=O)CNC(=O)[C@@H](NC(=O)[C@@H](NC(=O)[C@H](CCC(N)=O)NC(=O)[C@H](CC(C)C)NC(=O)[C@H](CCC(N)=O)NC(=O)[C@H](Cc2c[nH]cn2)NC(=O)[C@@H](N)[C@@H](C)O)C(C)C)CSSC[C@@H]2NC(=O)[C@@H](NC(=O)[C@H](C)NC(=O)[C@H](CC(=O)O)NC(=O)[C@H](C)NC(=O)[C@H](CC(C)C)NC(=O)CN)CSSC[C@H](NC(=O)[C@H](CCC(=O)O)NC(=O)[C@H](CC(N)=O)NC(=O)[C@H](CCCCN)NC2=O)C(=O)N[C@@H](CC(=O)O)C(=O)N[C@@H](CCC(=O)O)C(=O)N[C@@H](CC(N)=O)C(=O)N[C@@H](CCC(=O)O)C(=O)N[C@@H](CC(C)C)C(=O)N[C@@H](CC(=O)O)C(=O)N[C@@H](CCCNC(=N)N)C(=O)N[C@@H](Cc2ccc(O)cc2)C(=O)N[C@H](C(=O)N[C@@H](CC(N)=O)C(N)=O)CSSC[C@@H](C(=O)NCC(=O)N[C@@H](CC(=O)O)C(=O)N[C@@H](CCCNC(=N)N)C(=O)NCC(=O)N[C@H](C(=O)N[C@@H](Cc2ccc(O)cc2)C(=O)N[C@H](C(=O)N2CCC[C@H]2C(=O)N2CCC[C@H]2C(=O)N[C@@H](CCCNC(=N)N)C(=O)N[C@@H](CCCNC(=N)N)C(=O)O)[C@@H](C)O)C(C)C)NC(=O)[C@H](Cc2c[nH]cn2)NC(=O)[C@H](CCC(=O)O)NC(=O)[C@H]([C@@H](C)O)NC(=O)[C@H](CC(C)C)NC(=O)[C@H](C)NC(=O)[C@H](CC(=O)O)NC1=O — Kd (IGF1R (Homo sapiens, UniProt P08069); ligand displacement, radioligand): 28.6 nM

A few entries again:
N=C(N)NCCC[C@H](NC(=O)[C@H](CS)NC(=O)[C@H](Cc1ccc(O)cc1)NC(=O)[C@H](Cc1c[nH]c2ccccc12)NC(=O)[C@H](CCCNC(=N)N)NC(=O)[C@H](Cc1c[nH]c2ccccc12)NC(=O)CNC(=O)[C@H](Cc1c[nH]cn1)NC(=O)CNC(=O)CN)C(N)=O — Kd (HCV IV RNA; fluorescein-labelled RNA titration; 1 mM TCEP): 10000 ± 2000 nM
CSCC[C@H](NC(C)=O)C(=O)N[C@@H](CO)C(=O)N[C@@H](CO)C(=O)N1CCC[C@H]1C(=O)N1CCC[C@H]1C(=O)N[C@H]1CSCc2cc3cc(c2)CSC[C@@H](C(=O)N[C@@H](CC(C)C)C(=O)N[C@@H](CCCNC(=N)N)C(=O)N[C@@H](CCCNC(=N)N)C(=O)N[C@@H](Cc2ccc(O)cc2)C(=O)NCC(=O)N[C@@H](CO)C(=O)NCC(=O)N[C@@H](CO)C(=O)NCC(=O)N[C@@H](CO)C(=O)N[C@@H](CC(=O)O)C(=O)N[C@@H](Cc2ccc(O)cc2)C(=O)N[C@@H](CCCCN)C(=O)N[C@@H](CC(=O)O)C(=O)N[C@@H](CC(=O)O)C(=O)N[C@@H](CC(=O)O)C(=O)N[C@@H](CC(=O)O)C(=O)N[C@@H](CCCCN)C(N)=O)NC(=O)[C@H](CSC3)NC(=O)CNC(=O)[C@H](CC(C)C)NC(=O)[C@H]([C@@H](C)O)NC1=O — Kd (FGFR3 (Homo sapiens, UniProt P22607); binding, BLI): 13.3 nM
